Measurements gathered from unrelated publications.
Lines come from different studies, so protocols differ.
Cell line: OVCAR-8

Structure (SMILES) | test | setting | how to read | quantity | result
CC(=O)OC[C@H]1O[C@@H](Sc2sc(C(=O)c3ccc(Br)cc3)c(N)c2-c2nc3ccccc3s2)[C@H](OC(C)=O)[C@@H](OC(C)=O)[C@@H]1OC(C)=O | SRB | 10 µM, 48 h | reference: untreated | growth | 46.1%
CC/C=C\C/C=C\C/C=C\C/C=C\C/C=C\C/C=C\CCC(=O)Nc1ccn(C2OC(CO)C(O)C2(F)F)c(=O)n1 (centres unmarked) | cell growth or viability, SRB |  |  | GI50 | 0.0345 µM
CC(=C(c1ccc(O)cc1)c1ccc(Cl)cc1)c1ccc(Cl)cc1 | cell growth or viability |  |  | GI50 | 0.99 µM
C#CC[C@H](NC(=O)CNC(=O)[C@H](CO)NC(=O)[C@@H]1CCCCNC(=O)CCCC(=O)N[C@@H](CCSC)C(=O)N[C@@H](Cc2ccccc2)C(=O)N2CCC[C@H]2C(=O)N[C@@H](Cc2c[nH]cn2)C(=O)N[C@@H](CCCNC(=N)N)C(=O)N[C@@H](C(C)C)C(=O)N[C@@H]([C@@H](C)O)C(=O)N[C@@H](C)C(=O)N(C)[C@@H](C)C(=O)N1)C(=O)O | western blot | concentration not given, added: cisplatin |  | p62 accumulation | no effect
COc1ccc(C2=Nn3c(NN=C4C(=O)N(C)c5ccc(Br)cc54)nnc3SC2)cc1 | cell growth or viability, SRB | 10 µM |  | inhibition | 13%
CC(=O)OC[C@H]1O[C@@H](Sc2sc(C(=O)c3ccc(C)cc3)c(N)c2-c2nc3ccccc3s2)[C@H](OC(C)=O)[C@@H](OC(C)=O)[C@@H]1OC(C)=O | SRB | 10 µM, 48 h | reference: untreated | growth | 58.7%
CCC(=C(c1ccc(Cl)cc1)c1ccc(OCCCN(C)C)cc1)c1ccc(OC)cc1 | cell growth or viability |  |  | GI50 | 8.05 µM
COc1ccc2c(c1)/C(=N\Nc1nnc3n1N=C(c1ccccc1)CS3)C(=O)N2 | cell growth or viability, SRB | 10 µM |  | inhibition | 51%

Some of these lines once more:
Structure (SMILES) | test | setting | how to read | quantity | result
CC(=C(c1ccc(O)cc1)c1ccc(Cl)cc1)c1ccc(Cl)cc1 | cell growth or viability |  |  | GI50 | 0.99 µM
